# Measured values collected from several papers.
# “And” joins repeats or separate records; there may be more than shown. ± marks the error that the study gave.
# CALM1 Ca2+-bound C-lobe: Calmodulin-1, Ca2+-bound C-lobe (CALM1, Homo sapiens, UniProt P0DP23)
# ESR1: Estrogen receptor (ESR1, Homo sapiens, UniProt P03372)
# UniProt P03372, sequence (whole entry, looked up): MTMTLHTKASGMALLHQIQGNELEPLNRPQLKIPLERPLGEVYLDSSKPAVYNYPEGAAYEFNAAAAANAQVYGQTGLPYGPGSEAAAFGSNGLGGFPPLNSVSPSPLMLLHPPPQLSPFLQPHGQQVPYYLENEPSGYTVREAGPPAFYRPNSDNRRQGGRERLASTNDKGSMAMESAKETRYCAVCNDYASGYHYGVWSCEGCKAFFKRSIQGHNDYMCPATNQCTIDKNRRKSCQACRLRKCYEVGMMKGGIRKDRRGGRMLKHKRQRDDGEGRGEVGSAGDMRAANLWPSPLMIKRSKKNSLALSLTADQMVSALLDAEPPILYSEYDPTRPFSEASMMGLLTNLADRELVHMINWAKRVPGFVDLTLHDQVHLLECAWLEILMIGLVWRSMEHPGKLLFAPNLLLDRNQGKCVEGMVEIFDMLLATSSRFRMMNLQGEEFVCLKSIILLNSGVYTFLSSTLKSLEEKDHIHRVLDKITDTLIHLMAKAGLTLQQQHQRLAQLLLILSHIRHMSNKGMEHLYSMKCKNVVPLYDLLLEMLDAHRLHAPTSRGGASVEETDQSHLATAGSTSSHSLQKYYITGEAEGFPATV
# WD repeat-containing protein 91: WD repeat-containing protein 91 (Homo sapiens, UniProt A4D1P6)
# UniProt A4D1P6, sequence (whole entry, looked up): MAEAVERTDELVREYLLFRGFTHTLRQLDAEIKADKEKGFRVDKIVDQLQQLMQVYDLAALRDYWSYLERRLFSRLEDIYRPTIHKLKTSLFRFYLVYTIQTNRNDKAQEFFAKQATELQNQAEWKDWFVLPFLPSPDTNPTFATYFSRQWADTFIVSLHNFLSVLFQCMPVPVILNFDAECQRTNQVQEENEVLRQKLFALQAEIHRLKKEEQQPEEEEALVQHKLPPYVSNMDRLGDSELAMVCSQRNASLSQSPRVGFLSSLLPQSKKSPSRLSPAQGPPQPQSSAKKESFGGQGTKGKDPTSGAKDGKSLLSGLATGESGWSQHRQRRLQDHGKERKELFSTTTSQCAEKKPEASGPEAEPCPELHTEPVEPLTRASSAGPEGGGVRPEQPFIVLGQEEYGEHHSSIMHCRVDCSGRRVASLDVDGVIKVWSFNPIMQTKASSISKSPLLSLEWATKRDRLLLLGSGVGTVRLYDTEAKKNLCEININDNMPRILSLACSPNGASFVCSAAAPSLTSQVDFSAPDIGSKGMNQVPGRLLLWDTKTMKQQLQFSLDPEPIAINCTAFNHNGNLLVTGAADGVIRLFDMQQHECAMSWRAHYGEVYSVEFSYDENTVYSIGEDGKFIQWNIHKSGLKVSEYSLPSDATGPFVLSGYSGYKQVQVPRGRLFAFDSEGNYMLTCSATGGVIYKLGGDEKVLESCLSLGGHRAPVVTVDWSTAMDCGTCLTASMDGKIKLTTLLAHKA
# Genome polyprotein NS3 helicase domain: Genome polyprotein, NS3 helicase domain (Hepatitis C virus genotype 1b, UniProt Q9WMX2)
# NAA80: N-alpha-acetyltransferase 80 (NAA80, Homo sapiens, UniProt Q93015)
# UniProt Q93015, sequence (whole entry, looked up): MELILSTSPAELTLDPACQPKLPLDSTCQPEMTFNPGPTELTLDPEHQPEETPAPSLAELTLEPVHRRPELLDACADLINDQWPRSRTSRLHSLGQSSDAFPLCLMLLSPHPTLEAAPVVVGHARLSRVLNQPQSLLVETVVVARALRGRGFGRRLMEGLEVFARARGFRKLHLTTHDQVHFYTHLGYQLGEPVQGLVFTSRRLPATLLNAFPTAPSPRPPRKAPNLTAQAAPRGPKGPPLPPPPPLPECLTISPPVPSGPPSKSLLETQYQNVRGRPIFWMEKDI
# WD repeat-containing protein 91 WD40 domain, residues 392–747: WD repeat-containing protein 91, WD40 domain, residues 392–747 (Homo sapiens, UniProt A4D1P6)
# UniProt P09327, sequence (whole entry, looked up): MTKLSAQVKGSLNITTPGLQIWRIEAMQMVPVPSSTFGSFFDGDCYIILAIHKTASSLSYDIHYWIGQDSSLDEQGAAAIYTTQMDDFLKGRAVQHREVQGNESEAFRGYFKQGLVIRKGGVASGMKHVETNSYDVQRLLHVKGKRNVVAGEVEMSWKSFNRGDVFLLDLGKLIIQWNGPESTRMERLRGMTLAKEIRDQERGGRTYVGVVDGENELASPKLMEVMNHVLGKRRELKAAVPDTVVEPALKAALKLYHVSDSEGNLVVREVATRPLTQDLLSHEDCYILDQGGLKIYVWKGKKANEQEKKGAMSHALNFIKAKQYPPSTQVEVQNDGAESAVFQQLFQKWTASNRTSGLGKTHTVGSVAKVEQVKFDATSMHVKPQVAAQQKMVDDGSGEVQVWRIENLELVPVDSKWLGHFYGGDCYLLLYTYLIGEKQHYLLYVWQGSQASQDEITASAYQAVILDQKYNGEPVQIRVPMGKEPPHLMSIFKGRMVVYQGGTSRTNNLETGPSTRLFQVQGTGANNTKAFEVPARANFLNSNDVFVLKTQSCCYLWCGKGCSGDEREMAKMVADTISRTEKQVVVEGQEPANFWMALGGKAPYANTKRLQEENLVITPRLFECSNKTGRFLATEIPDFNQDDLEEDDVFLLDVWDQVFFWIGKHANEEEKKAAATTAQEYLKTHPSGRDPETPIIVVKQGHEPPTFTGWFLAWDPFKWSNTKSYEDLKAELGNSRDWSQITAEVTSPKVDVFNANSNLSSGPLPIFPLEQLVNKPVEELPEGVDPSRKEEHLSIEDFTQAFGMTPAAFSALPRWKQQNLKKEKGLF
# UniProt Q16774, sequence (whole entry, unmodified, looked up): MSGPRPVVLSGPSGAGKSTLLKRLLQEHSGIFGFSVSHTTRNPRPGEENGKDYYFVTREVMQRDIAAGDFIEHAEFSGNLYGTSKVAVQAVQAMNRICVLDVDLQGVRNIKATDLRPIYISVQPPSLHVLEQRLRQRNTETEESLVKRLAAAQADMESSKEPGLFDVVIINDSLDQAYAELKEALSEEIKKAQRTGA
# UniProt O76090, sequence (whole entry, unmodified, looked up): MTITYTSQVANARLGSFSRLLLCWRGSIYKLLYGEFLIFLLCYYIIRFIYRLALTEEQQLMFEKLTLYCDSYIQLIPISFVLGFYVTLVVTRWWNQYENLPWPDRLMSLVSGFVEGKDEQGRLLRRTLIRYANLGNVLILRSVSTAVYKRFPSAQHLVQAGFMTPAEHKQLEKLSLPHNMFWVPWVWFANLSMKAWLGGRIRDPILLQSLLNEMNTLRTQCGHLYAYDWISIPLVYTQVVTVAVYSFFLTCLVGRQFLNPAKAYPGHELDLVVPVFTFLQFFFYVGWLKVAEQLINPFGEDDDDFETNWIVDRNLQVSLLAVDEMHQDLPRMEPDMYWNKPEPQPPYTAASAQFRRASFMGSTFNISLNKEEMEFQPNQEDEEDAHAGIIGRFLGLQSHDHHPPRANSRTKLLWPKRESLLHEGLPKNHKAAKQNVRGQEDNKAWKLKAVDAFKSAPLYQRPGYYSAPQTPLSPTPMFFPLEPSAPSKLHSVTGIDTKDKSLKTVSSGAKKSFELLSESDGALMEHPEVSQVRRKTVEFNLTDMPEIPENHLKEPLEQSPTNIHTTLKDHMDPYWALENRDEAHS
# UniProt P51575, sequence (whole entry, unmodified, looked up): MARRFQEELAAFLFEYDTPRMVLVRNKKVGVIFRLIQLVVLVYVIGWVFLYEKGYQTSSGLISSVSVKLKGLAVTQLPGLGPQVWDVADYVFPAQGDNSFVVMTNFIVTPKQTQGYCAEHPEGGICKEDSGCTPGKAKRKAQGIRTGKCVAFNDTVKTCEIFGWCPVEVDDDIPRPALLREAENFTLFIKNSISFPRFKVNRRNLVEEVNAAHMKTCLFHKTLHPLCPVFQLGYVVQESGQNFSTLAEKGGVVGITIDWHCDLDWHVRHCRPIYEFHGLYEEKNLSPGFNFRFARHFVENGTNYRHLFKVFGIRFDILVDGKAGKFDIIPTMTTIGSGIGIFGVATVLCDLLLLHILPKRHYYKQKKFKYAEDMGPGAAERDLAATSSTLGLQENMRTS
# UniProt P31941, sequence (whole entry, looked up): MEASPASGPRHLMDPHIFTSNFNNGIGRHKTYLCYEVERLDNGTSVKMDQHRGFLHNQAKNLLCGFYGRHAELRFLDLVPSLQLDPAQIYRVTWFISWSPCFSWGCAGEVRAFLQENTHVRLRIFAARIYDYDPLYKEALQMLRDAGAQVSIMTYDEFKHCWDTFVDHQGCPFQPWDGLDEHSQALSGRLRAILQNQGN
# UniProt Q92570, sequence (whole entry, looked up): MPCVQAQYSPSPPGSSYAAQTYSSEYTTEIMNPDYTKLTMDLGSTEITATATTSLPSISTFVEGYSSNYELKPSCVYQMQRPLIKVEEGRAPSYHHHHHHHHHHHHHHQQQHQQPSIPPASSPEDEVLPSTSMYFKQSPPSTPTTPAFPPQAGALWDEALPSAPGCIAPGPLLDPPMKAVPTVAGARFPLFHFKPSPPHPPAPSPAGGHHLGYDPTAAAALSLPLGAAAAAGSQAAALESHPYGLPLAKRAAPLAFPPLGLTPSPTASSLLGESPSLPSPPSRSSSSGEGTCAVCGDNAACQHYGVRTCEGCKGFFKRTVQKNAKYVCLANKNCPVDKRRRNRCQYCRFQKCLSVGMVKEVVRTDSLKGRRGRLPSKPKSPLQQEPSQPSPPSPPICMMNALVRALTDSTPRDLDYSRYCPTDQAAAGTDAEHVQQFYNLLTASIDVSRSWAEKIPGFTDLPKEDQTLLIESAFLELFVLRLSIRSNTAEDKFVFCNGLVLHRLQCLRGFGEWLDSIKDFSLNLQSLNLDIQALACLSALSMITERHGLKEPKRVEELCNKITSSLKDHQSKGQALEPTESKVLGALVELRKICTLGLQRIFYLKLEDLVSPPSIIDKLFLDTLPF
# UniProt P00441, sequence (whole entry, unmodified, looked up): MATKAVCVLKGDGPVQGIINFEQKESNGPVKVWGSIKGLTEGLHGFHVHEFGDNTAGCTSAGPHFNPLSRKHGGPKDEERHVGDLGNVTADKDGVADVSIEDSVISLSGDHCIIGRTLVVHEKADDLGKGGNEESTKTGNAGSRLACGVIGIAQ
# UniProt Q9NWT6, sequence (whole entry, looked up): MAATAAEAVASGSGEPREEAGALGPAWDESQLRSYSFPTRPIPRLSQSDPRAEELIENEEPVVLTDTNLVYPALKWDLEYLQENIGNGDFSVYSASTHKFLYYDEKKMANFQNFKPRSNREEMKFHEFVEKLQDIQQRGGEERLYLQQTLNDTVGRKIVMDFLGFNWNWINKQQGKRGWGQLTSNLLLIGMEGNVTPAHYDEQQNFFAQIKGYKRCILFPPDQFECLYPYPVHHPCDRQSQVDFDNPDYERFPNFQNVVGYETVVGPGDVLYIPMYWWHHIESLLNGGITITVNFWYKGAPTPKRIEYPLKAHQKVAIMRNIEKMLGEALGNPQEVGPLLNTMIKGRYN
Structure (SMILES),target,assay,test system,conditions,how to read,endpoint,result
Oc1ccc(/C=C/c2cc(O)cc(O)c2)cc1,"O-methyltransferase (Sorghum bicolor, UniProt A0A1B6PFV1)",ITC two-site model,,"endothermic site, added: sinefungin",,cooperativity factor,2.9
CC[C@H](C)[C@H](NC(=O)[C@H](CCCCN)NC(=O)CNC(=O)[C@@H](NC(=O)[C@@H](NC(=O)[C@H](CCSC)NC(=O)[C@H](Cc1c[nH]cn1)NC(=O)CN)[C@@H](C)O)C(C)C)C(=O)N[C@@H](Cc1ccc(O)cc1)C(=O)N[C@@H](C)C(=O)N[C@@H](C)C(=O)N[C@@H](CCSC)C(=O)N[C@@H](CCSC)C(=O)N[C@H](C(=O)N[C@@H](CCSC)C(=O)N[C@@H](CCC(=O)O)C(=O)N[C@@H](C)C(=O)N[C@@H](Cc1ccc(O)cc1)C(=O)N[C@@H](CCCNC(=N)N)C(=O)N[C@@H](CCC(N)=O)C(=O)N[C@@H](CO)C(=O)N[C@@H](CCCCN)C(=O)N[C@@H](C)C(=O)N[C@@H](CCCCN)C(=O)N[C@@H](CCCCN)C(=O)N[C@@H](CC(C)C)C(=O)N[C@@H](CCC(N)=O)C(=O)N[C@@H](C)C(=O)N[C@@H](CCSC)C(=O)N[C@@H](CCCNC(=N)N)C(=O)O)[C@@H](C)CC,CALM1 Ca2+-bound C-lobe,"binding, isothermal titration calorimetry",,"pH 7.4, 15 °C, Ca2+-bound C-lobe, added: CaV2.1 IQ peptide",,stoichiometry,1.07 ± 0.08
CCCCC/C=C/C(=O)CCc1ccc(O)c(OC)c1,ESR1,array formation,PRL-HeLa,,reference: EC50 ERβ over EC50 ERα,selectivity ratio,0.731
[O-][S+]1CCCCS1 (centres unmarked),"Superoxide dismutase [Cu-Zn] (SOD1, Homo sapiens, UniProt P00441, G94A)",LC-MS,human whole blood,"10 µM, 1 h, 37 °C",,SOD1 dimer fraction,1.02%
Nc1ncnc2c1ncn2[C@@H]1O[C@H](COP(=O)(O)OP(=O)(O)O)[C@@H](O)[C@H]1O,"Creatine kinase U-type, mitochondrial (CKMT1A, Homo sapiens, UniProt P12532, H99A)","substrate, Kinase-Glo luminescence",,"pH 7.0, reverse reaction, H61A mutant, added: second substrate in excess",,Km,33 ± 1 µM
O=C(NC1CCCS(=O)(=O)c2ccccc21)c1ccc2nc(O)cnc2c1 (centres unmarked),WD repeat-containing protein 91,"binding, SPR steady state",,0.4688 µM,,SPR response,3.93 RU
Nc1ncnc2c1ncn2[C@@H]1O[C@H](COP(=O)(O)CP(=O)(O)OP(=O)(O)O)[C@@H](O)[C@H]1O,"P2X purinoceptor 1 (P2RX1, Homo sapiens, UniProt P51575, R139A)",saturation binding,HEK293,79 nM,,specific binding,4190 CCPM and 2900 CCPM
CS(=O)(=O)O.Cn1cc(C(F)(F)F)nc1-c1ccc(OCC(O)CNCCOc2ccc(O)c(C(N)=O)c2)cc1 (centres unmarked),Genome polyprotein NS3 helicase domain,"DNA binding, inhibitor",hepatitis C virus,"100 µM, added: Cy5-dT15 DNA",,inhibition,0%
CCCCC[C@H](O)/C=C/[C@H]1[C@H](O)CC(=O)[C@@H]1C/C=C\CCCC(=O)O,"Prostaglandin E2 receptor EP1 subtype (PTGER1, Homo sapiens, UniProt P34995, R355A)","IP1 accumulation, agonist",AD293,"1 h, EP1 R355A mutant",,Emax,16.5 ± 5.95%
CCC(=O)NS(=O)(=O)c1ccc(-c2c(-c3ccccc3)noc2C)cc1,"Nuclear receptor subfamily 4 group A member 3, ligand-binding domain (Homo sapiens, UniProt Q92570)","reporter gene, Gal4 hybrid reporter",,50 µM,reference: vehicle,activation,0.37 fold
CNC1(C)C2CCC(C2)C1(C)C (centres unmarked),Genome polyprotein NS3 helicase domain,"DNA binding, inhibitor",hepatitis C virus,"100 µM, added: Cy5-dT15 DNA",,inhibition,0%
CCC1(O)CCCN(C(=O)c2ccc(-c3ccc(F)c(NC(=O)CCl)c3)cc2)C1 (centres unmarked),"DNA dC->dU-editing enzyme APOBEC-3A (Homo sapiens, UniProt P31941)","covalent adduct, intact protein MS",,"3 h, 20-fold excess, 500 µM",,unmodified protein,0%
CCCCN1/C(=C/C=C/c2sc3ccc(Br)cc3[n+]2CCCC)Sc2ccc(Br)cc21.[I-],"Protein arginine N-methyltransferase 3 (PRMT3, Homo sapiens, UniProt O60678)","inhibitor, filter binding",,added: R4 peptide substrate,,Hill coefficient,2.44
COc1cc(SC)ccc1C(=O)N1CCC(Cc2ccccc2)CC1,Genome polyprotein NS3 helicase domain,"DNA binding, inhibitor",hepatitis C virus,"100 µM, added: Cy5-dT15 DNA",,inhibition,1%
O=O,"Hypoxia-inducible factor 1-alpha inhibitor (HIF1AN, Homo sapiens, UniProt Q9NWT6)","substrate, MALDI-TOF MS",,"pH 7.00, 37.0 °C, added: CTAD 80 µM, αKG 100 µM",,Km,221 ± 33 µM
O=C(COP(=O)(O)O)[C@@H](O)[C@H](O)[C@H](O)COP(=O)(O)O,"Villin-1 (Homo sapiens, UniProt P09327)","thermal proteome profiling, item: VIL1",HepG2 cell lysate,"concentration not given, 57 over 37 °C",reference: compound over control,thermal stability ratio,0.464 and 0.6 and 0.85
Cl.Clc1ccc(Cn2c(CN3CCCC3)nc3ccccc32)cc1,Genome polyprotein NS3 helicase domain,"DNA binding, inhibitor",hepatitis C virus,"100 µM, added: Cy5-dT15 DNA",,inhibition,0%
CCn1c(=O)[nH]c2cc(C(=O)NC(c3ccc(F)cc3)c3cnn(C)c3)ccc2c1=O (centres unmarked),WD repeat-containing protein 91,"binding, SPR steady state",,3.75 µM,,SPR response,19.8 RU
O=c1nc(SCc2cc(F)cc(C(F)(F)F)c2)nc(SCc2ccc3nc(Cl)ccc3c2)[nH]1,"DNA topoisomerase 2-alpha (TOP2A, Homo sapiens, UniProt P11388)",ATPase activity,,"7.8 µM, added: ATP 0.75 mM",,ATP hydrolysis rate,0.29 µM/min and 2.83 µM/min
O=c1cc(-c2ccccc2)oc2ccc(O)cc12,ESR1,array formation,PRL-HeLa,,reference: EC50 ERβ over EC50 ERα,selectivity ratio,0.498
N[C@@H](Cc1c[nH]c2ccccc12)C(=O)O,NAA80,"substrate, DTNB",,"2 mM, 30 min, 37 °C, added: acetyl-CoA 500 µM",,product formation,1.05 µM
COc1ccc(-c2cncc(C(=O)N[C@@H]3CCc4c(C#N)cccc43)c2)c(C)c1,"WD repeat-containing protein 91, residues 392–747 (Homo sapiens, UniProt A4D1P6)",SPR dose-response titration,,"concentration not given, 1:1 binding model",,binding,73%
Nc1ccc(C(=O)O)cc1,"BEST1, with wild-type BEST1 (Homo sapiens, UniProt O76090, Q293K)","ion current, whole-cell patch clamp",HEK293 co-expressing mutant and wild-type,"concentration not given, voltage 60 mV",,current density,5.56 pA/pF and 8.58 pA/pF and 13 pA/pF and 14.7 pA/pF and 24.1 pA/pF and 8.49 pA/pF
COc1cc(/C=C/C(=O)C(=Cc2cccc(O)c2)C(=O)/C=C/c2ccc(O)c(OC)c2)ccc1O,haemin,"binding, isothermal titration calorimetry",,"pH 7.4, 37 °C",,ΔS,-212 ± 7.56 J/(mol·K)
Nc1nc2c(ncn2[C@@H]2O[C@H](COP(=O)(O)O)[C@@H](O)[C@H]2O)c(=O)[nH]1,"GUK1 (Homo sapiens, UniProt Q16774, T83A)","enzyme activity, NADH-coupled",,62.5 µM,,reaction rate,14.4 s⁻¹ and 10.8 s⁻¹ and 11 s⁻¹
O=C(NC1CCN(c2ncnc3c2nc(-c2ccccc2Cl)n3-c2ccc(Cl)cc2)CC1)c1ccc(F)cc1F,"Cannabinoid receptor 1 (CNR1, Homo sapiens, UniProt P21554)","binding, [3H]CP55940 displacement",,,reference: Ki CB2 over Ki CB1,selectivity ratio,> 3500
CC[C@H](C)[C@H](NC(=O)[C@H](C)NC(=O)[C@H](CCSC)NC(=O)[C@H](C)NC(=O)[C@H](C)NC(=O)[C@H](Cc1ccc(O)cc1)NC(=O)[C@@H](NC(=O)[C@H](CCCCN)NC(=O)CNC(=O)[C@@H](NC(=O)[C@@H](NC(=O)[C@H](CCSC)NC(=O)[C@H](Cc1c[nH]cn1)NC(=O)CN)[C@@H](C)O)C(C)C)[C@@H](C)CC)C(=O)N[C@@H](CCSC)C(=O)N[C@@H](CCC(=O)O)C(=O)N[C@@H](Cc1ccc(O)cc1)C(=O)N[C@@H](Cc1ccc(O)cc1)C(=O)N[C@@H](CCCNC(=N)N)C(=O)N[C@@H](CCC(N)=O)C(=O)N[C@@H](CO)C(=O)N[C@@H](CCCCN)C(=O)N[C@@H](C)C(=O)N[C@@H](CCCCN)C(=O)N[C@@H](CCCCN)C(=O)N[C@@H](CC(C)C)C(=O)N[C@@H](CCC(N)=O)C(=O)N[C@@H](C)C(=O)N[C@@H](CCSC)C(=O)N[C@@H](CCCNC(=N)N)C(=O)O,CALM1 Ca2+-bound C-lobe,"binding, isothermal titration calorimetry",,"pH 7.4, 15 °C, Ca2+-bound C-lobe, added: CaV2.1 IQ peptide",,stoichiometry,0.88 ± 0.16
O=C(O)c1ccccc1Nc1cccc(OCc2ccc3ccccc3n2)c1,Genome polyprotein NS3 helicase domain,"DNA binding, inhibitor",hepatitis C virus,"100 µM, added: Cy5-dT15 DNA",,inhibition,0%
N#Cc1cccc2c1CC[C@H]2NC(=O)c1ccc(-c2ccco2)[nH]1,"WD repeat-containing protein 91 WD40 domain, residues 392–747","binding, SPR single-concentration screen",,45 µM,,SPR response,14.3 RU and 10.5 RU
C[C@H](CS)C(=O)N1CCC[C@H]1C(=O)O,Genome polyprotein NS3 helicase domain,"NS3 helicase DNA binding, fluorescence binding",,"100 µM, added: Cy5-dT15",,inhibition,0%
C[C@]12CC[C@@H]3c4ccc(O)cc4C[C@@H](CCCCCCCCC[S+]([O-])CCCC(F)(F)C(F)(F)F)[C@H]3[C@@H]1CC[C@@H]2O (some centres unmarked),ESR1,"antagonist, CALUX reporter",U2OS,3e-08 µg/mL,,antagonist response,48%
CC12CC3CC(C)(C1)CC(N)(C3)C2,"Glutamate receptor 2 (Homo sapiens, UniProt P42262)","ion current, positive allosteric modulator, SyncroPatch patch clamp",HEK293,30 µM,,potentiation,77%
O=C(O)[C@@H](O)[C@@H](O)[C@H](O)[C@@H](O)CO,"Uncharacterized protein (Chromohalobacter israelensis, UniProt Q1QT90)","binder, thermal shift",,,,delta Tm,2.1 °C
N#CC1CCN(C(=O)c2ccc(S(=O)(=O)N3CCCc4ccccc43)cc2)CC1,"WD repeat-containing protein 91 WD40 domain, residues 392–747","binding, SPR single-concentration screen",,45 µM,,SPR response,0.4 RU and 3.4 RU
OCc1ccccc1O[C@@H]1O[C@H](CO)[C@@H](O)[C@H](O)[C@H]1O,"bgl1 (Penicillium oxalicum, UniProt A0A7D7KIC3)",,"Penicillium oxalicum, culture supernatant","pH 5, 50 °C",,substrate inhibition constant,8.98 mg/mL
N#CC1CCN(C(=O)c2ccc(C=Cc3ccc4ccccc4n3)cc2)CC1,"WD repeat-containing protein 91 WD40 domain, residues 392–747","binding, SPR single-concentration screen",,45 µM,,SPR response,2.5 RU and 3.5 RU
COc1cc(/C=C2\CC/C(=C\c3ccc(O)c(OC)c3)C2=O)ccc1O,haemin,"binding, isothermal titration calorimetry",,"pH 7.4, 37 °C",,ΔH,-23.6 ± 0.492 kcal/mol
NCCCC(=O)O,"Sodium- and chloride-dependent taurine transporter (SLC6A6, Homo sapiens, UniProt P31641, Y138A)","binding, microscale thermophoresis",,"1 mM, room temperature, added: 50 nM labelled protein",higher = more binding,normalised MST signal,0.0225
CNC(=O)[C@H]1O[C@@H](n2cnc3c(NCc4cccc(I)c4)nc(Cl)nc32)[C@H](O)[C@@H]1O,Genome polyprotein NS3 helicase domain,"DNA binding, inhibitor",hepatitis C virus,"100 µM, added: Cy5-dT15 DNA",,inhibition,1%
COc1cc(Nc2ncc3c(n2)-c2ccc(Cl)cc2C(c2c(F)cccc2OC)=NC3)ccc1C(=O)O,MAPKAPK3,kinase activity,,1 µM,,remaining activity,6%
NCCCC[C@H](N)C(=O)O,NAA80,"substrate, DTNB",,"2 mM, 30 min, 37 °C, added: acetyl-CoA 500 µM",,product formation,2.93 µM

# A few entries again:
Structure (SMILES),target,assay,test system,conditions,how to read,endpoint,result
O=C(NC1CCCS(=O)(=O)c2ccccc21)c1ccc2nc(O)cnc2c1 (centres unmarked),WD repeat-containing protein 91,"binding, SPR steady state",,0.4688 µM,,SPR response,3.93 RU
Nc1ncnc2c1ncn2[C@@H]1O[C@H](COP(=O)(O)CP(=O)(O)OP(=O)(O)O)[C@@H](O)[C@H]1O,"P2X purinoceptor 1 (P2RX1, Homo sapiens, UniProt P51575, R139A)",saturation binding,HEK293,79 nM,,specific binding,4190 CCPM and 2900 CCPM
